Measurements of several laboratories.
Parts stem from different laboratories: compare values within a part only.
Chain of UniProt O75914 (whole entry, looked up): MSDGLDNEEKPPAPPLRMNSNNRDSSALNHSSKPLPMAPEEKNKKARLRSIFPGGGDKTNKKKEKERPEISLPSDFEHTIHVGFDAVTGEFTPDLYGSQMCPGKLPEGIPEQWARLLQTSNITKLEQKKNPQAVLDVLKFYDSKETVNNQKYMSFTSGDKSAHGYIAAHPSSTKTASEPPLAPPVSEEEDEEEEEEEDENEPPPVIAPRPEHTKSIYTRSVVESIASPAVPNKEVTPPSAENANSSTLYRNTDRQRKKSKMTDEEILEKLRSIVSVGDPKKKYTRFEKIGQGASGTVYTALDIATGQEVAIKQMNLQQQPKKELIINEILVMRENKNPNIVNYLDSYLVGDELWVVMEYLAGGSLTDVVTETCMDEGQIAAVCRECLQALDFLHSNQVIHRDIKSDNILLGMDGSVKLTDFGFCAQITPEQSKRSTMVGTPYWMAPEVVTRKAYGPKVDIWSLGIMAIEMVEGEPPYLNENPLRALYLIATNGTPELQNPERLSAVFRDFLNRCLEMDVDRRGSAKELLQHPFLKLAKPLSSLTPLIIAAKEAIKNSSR
Chain of UniProt Q9H4B4 (whole entry, looked up): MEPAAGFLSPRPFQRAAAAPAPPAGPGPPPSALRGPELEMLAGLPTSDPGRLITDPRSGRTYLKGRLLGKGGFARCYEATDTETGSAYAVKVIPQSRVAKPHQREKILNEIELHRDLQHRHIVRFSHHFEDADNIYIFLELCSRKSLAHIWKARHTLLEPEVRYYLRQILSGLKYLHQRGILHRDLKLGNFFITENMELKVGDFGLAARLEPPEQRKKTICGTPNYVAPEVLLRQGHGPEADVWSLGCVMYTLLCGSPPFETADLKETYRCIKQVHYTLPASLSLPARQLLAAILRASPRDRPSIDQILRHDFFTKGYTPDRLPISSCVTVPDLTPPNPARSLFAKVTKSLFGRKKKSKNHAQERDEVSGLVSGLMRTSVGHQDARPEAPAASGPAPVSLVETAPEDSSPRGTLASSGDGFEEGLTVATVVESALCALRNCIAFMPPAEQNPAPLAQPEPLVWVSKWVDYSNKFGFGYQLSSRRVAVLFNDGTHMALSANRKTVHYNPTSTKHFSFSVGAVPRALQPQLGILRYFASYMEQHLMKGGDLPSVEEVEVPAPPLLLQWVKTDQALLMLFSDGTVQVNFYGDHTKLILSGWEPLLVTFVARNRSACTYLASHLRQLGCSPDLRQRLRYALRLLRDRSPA
Chain of UniProt P08581 (whole entry, looked up): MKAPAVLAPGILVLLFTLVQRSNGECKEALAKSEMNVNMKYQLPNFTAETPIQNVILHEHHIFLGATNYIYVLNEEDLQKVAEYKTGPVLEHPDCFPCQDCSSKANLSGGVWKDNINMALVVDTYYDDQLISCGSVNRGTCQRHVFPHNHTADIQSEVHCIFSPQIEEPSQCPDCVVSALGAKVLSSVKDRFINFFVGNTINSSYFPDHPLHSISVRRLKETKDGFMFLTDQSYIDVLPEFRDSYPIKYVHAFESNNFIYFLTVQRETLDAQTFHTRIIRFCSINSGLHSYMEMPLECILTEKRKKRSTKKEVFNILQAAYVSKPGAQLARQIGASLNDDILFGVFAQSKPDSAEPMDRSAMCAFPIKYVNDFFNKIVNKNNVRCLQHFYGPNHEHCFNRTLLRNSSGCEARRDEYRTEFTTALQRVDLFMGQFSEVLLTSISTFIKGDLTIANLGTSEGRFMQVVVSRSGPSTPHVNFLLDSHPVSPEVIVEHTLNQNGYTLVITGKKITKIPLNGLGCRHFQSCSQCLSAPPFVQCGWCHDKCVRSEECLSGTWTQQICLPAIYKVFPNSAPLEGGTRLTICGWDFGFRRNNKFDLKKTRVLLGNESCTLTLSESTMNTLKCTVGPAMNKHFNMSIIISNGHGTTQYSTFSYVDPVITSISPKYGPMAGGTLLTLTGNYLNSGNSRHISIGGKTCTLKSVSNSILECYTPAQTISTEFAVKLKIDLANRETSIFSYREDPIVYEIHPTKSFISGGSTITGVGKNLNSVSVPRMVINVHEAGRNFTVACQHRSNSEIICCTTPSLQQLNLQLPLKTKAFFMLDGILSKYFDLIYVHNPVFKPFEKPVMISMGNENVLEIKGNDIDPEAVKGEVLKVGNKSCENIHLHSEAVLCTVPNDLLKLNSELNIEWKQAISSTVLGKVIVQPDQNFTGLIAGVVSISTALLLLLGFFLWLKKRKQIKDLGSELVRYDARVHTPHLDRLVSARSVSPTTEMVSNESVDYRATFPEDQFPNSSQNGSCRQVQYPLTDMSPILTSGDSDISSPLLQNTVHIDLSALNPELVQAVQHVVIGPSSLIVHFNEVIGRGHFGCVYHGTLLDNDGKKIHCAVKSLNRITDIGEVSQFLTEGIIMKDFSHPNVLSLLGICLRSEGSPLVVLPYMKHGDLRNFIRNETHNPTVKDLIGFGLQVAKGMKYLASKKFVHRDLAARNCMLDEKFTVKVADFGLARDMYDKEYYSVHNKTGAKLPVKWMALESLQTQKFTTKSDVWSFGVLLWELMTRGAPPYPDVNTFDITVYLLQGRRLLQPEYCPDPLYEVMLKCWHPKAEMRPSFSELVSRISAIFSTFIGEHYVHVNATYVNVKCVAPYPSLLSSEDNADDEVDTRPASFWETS
Chain of UniProt O75676 (whole entry, looked up): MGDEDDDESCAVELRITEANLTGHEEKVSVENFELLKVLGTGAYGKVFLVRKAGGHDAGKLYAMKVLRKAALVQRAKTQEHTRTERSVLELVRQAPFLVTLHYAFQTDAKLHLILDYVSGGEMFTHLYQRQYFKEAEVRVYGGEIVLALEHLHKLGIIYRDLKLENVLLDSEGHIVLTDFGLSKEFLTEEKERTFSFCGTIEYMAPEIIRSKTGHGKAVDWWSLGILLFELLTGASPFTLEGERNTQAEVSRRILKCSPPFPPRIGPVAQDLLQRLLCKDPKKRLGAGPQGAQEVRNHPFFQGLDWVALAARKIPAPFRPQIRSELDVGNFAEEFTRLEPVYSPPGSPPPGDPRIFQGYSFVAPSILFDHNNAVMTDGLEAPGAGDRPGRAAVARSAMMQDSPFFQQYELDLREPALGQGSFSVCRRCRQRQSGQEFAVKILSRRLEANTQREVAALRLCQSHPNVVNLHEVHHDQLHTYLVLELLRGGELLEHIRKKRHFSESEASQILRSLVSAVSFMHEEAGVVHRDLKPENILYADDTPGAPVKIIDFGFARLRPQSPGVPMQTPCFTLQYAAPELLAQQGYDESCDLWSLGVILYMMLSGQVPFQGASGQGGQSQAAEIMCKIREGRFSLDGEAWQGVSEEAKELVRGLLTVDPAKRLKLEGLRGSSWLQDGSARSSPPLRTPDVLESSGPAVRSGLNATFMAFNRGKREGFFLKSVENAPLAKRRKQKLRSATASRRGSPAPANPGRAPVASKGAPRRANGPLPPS
Chain of UniProt Q9NRH2 (whole entry, looked up): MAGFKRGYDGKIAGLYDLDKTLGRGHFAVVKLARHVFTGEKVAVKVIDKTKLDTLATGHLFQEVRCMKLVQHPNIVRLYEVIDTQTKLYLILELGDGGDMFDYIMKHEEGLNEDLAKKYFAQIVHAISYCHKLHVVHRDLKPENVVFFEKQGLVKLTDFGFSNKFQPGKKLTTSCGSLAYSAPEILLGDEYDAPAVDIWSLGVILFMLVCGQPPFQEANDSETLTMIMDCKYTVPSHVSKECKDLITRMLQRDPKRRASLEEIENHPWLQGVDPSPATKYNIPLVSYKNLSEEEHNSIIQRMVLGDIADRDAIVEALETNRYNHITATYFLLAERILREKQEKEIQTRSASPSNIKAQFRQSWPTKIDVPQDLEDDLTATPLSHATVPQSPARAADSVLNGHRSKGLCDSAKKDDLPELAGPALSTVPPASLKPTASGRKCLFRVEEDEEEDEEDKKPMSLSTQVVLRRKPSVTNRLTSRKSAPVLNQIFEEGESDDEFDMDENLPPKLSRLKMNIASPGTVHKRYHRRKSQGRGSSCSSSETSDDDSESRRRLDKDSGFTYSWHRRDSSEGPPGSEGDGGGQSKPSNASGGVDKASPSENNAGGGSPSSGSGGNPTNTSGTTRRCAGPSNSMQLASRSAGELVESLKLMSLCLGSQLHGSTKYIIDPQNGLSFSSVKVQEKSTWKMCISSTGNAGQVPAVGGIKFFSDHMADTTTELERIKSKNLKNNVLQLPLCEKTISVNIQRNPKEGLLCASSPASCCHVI
Chain of UniProt Q16539 (whole entry, looked up): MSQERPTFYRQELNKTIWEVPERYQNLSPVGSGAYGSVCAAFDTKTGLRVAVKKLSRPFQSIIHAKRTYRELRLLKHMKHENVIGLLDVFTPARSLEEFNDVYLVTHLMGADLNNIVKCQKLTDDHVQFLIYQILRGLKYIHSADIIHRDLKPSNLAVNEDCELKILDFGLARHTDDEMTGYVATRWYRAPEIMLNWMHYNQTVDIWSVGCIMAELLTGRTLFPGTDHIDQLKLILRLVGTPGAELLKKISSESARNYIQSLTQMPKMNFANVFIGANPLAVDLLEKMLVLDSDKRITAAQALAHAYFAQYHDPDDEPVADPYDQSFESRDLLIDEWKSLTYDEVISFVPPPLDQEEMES

Set 1 — effect on: cell-free assay; technique: competition with immobilised ligand; tested at: 1 µM; quantity: remaining binding
SMILES: O=C1CCc2cc(Nc3cc(OC4CCOCC4)c([N+](=O)[O-])cc3Cl)ccc2N1
SNF-related serine/threonine-protein kinase (SNRK, Homo sapiens, UniProt Q9NRH2): 100%
Homeodomain-interacting protein kinase 1 (HIPK1, Homo sapiens, UniProt Q86Z02): 95%
Mast/stem cell growth factor receptor Kit (KIT, Homo sapiens, UniProt P10721, A829P): 100%
Tyrosine-protein kinase ABL1, non-phosphorylated (ABL1, Homo sapiens, UniProt P00519): 98%
Ephrin type-B receptor 1 (EPHB1, Homo sapiens, UniProt P54762): 83%

Set 2 — host: mouse; sample: microsomes or S9; tested at: 2 µM; time: 0.5 h; quantity: remaining compound
N#Cc1nc(-c2cccc3ccccc23)oc1NCc1cccnc1: 6.15%
CCC12OCC(C)(C)N1O/C(=N/c1ccccc1)N2c1ccccc1 (centres unmarked): 0.33%
COc1ccc(C)cc1NS(=O)(=O)c1cn(C)nc1C: 5.65%
c1ccc(-c2ncc(-c3nc4ccncc4[nH]3)s2)nc1: 5.88%
Cc1nc2cc(NC(=O)c3cccc4cn[nH]c34)ccc2o1: 0.57%

Set 3 — SMILES: Nc1ncnc2c1cnn2-c1ccccc1; effect on: enzyme activity; action: inhibitor; tested at: 0.5 µM; reference: control; quantity: remaining activity
Ribosomal protein S6 kinase alpha-4 (RPS6KA4, Homo sapiens, UniProt O75676): 106%
Serine/threonine-protein kinase PAK 3 (PAK3, Homo sapiens, UniProt O75914): 98.8%
Serine/threonine-protein kinase PLK3 (PLK3, Homo sapiens, UniProt Q9H4B4): 94.6%
Mitogen-activated protein kinase 1 (MAPK1, Homo sapiens, UniProt P28482): 85.4%
G protein-coupled receptor kinase 4 (GRK4, Homo sapiens, UniProt P32298): 106%
Serine/threonine-protein kinase tousled-like 2 (TLK2, Homo sapiens, UniProt Q86UE8): 110%
Misshapen-like kinase 1 (MINK1, Homo sapiens, UniProt Q8N4C8): 88.9%
Hepatocyte growth factor receptor (MET, Homo sapiens, UniProt P08581): 97.1%
Calcium/calmodulin-dependent protein kinase type IV (CAMK4, Homo sapiens, UniProt Q16566): 104%
Serine/threonine-protein kinase DCLK2 (DCLK2, Homo sapiens, UniProt Q8N568): 101%
RAC-beta serine/threonine-protein kinase (AKT2, Homo sapiens, UniProt P31751): 102%
Calcium/calmodulin-dependent protein kinase type 1B (PNCK, Homo sapiens, UniProt Q6P2M8): 97.5%
Mitogen-activated protein kinase 14 (MAPK14, Homo sapiens, UniProt Q16539): 89.2%
Serine/threonine-protein kinase Nek3 (NEK3, Homo sapiens, UniProt P51956): 93.5%

Set 4 — cell line: A-375; tested at: 100 µM; time: 36 h; quantity: viability
CN(C)c1nc(N(C)C)nc(N(C)C)n1: 99%
CN(Cc1cnc2nc(N)nc(N)c2n1)c1ccc(C(=O)N[C@@H](CCC(=O)O)C(=O)O)cc1: 47.3%
CC(C)NCC(O)COc1ccc(COCCOC(C)C)cc1 (racemic): 101%
COc1ccc(-c2coc3cc(O)ccc3c2=O)cc1: 96.5%
CN1C(C(=O)Nc2ccccn2)=C(O)c2sccc2S1(=O)=O: 105%
Nc1nc(F)nc2c1ncn2[C@@H]1O[C@H](COP(=O)(O)O)[C@@H](O)[C@@H]1O: 32.2%

Single results of other studies — effect on: enzyme activity; action: inhibitor; technique: ADP detection; tested at: 10 µM
Target: Calcium/calmodulin-dependent protein kinase type II subunit alpha (CAMK2A, Homo sapiens, UniProt Q9UQM7)
Chain of UniProt Q9UQM7 (whole entry, looked up): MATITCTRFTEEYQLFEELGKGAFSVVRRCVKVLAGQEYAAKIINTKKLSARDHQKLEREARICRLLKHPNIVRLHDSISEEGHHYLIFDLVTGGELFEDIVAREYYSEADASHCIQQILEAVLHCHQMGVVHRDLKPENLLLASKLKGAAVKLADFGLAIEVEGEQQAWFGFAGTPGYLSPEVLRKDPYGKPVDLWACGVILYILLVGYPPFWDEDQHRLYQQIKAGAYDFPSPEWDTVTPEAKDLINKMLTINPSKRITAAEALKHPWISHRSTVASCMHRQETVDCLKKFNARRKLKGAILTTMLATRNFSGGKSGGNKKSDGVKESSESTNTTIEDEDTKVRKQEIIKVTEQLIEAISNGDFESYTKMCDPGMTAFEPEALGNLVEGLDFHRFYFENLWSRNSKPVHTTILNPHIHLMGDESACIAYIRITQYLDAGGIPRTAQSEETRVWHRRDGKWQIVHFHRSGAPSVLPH
CCN(CC)CCNC(=O)c1c(C)[nH]c(/C=C2\C(=O)Nc3ccc(F)cc32)c1C — inhibition: > 80%
N#CC[C@H](C1CCCC1)n1cc(-c2ncnc3[nH]ccc23)cn1 — inhibition: > 80%
